Experimental data pooled from the literature.
Lines come from different studies, so protocols differ.
Method: steady-state kinetics
B1: enzyme (Schizosaccharomyces pombe, UniProt Q9Y7P0); chain MFTGLVEAIGVVKDVQGTIDNGFAMKIEAPQILDDCHTGDSIAVNGTCLTVTDFDRYHFTVGIAPESLRLTNLGQCKAGDPVNLERAVLSSTRMGGHFVQGHVDTVAEIVEKKQDGEAIDFTFRPRDPFVLKYIVYKGYIALDGTSLTITHVDDSTFSIMMISYTQSKVIMAKKNVGDLVNVEVDQIGKYTEKLVEAHIADWIKKTQA
B2: enzyme (Brachypodium distachyon, UniProt I1IPY7); chain MEQGKAALGWAARDASGHLSPYNFSRRVQKDDDVTIKVLFCGICHTDLHIIKNEWGNALYPIVPGHEVVGVVTDVGPGVKNFKAGETVGVGYFLDSCRTCDSCSKGHENYCPTLVLTSNGVDYDGATTQGGFSDVVVVNQDYVVRVPDTLPPDGAAPLLCAGVTVYSPMMQYGLNAPGKHLGVVGLGGLGHMAVKFGKAFGMKVTVISSSLRKREEALDRLGADDFLVSSDAEQMKAAAGAMDGIIDTVSAGHPIVPLLELLRPMGQMVVCGAPSEPLQLPAYAVITGGKRIAGNGVGSVRDCQAMLDFAGEHGITADVEVVKMDYVNTAVERLERNDVRYRFVIDVAGSLQQGGAA
B3: enzyme R120K (Arabidopsis thaliana, UniProt O82390); chain MNARALLCSSNIHSLYTSNRPPEKTSSSRSLRNLKPSPKSLRVWIYPRNRSSVFRVLVRSSDKSESSNSYYVEGDKVSGNNDVVSDSPSSIVLPWWEEFPKRWVIVLLCFSAFLLCNMDKVNMSIAILPMSAEYGWNPATVGLIQSSFFWGYLLTQIAGGIWADTVGGKRVLGFGVIWWSIATILTPVAAKLGLPYLLVVRAFMGVGEGVAMPAMNNILSKWVPVQERSRSLALVYSGMYLGSVTGLAFSPFLIHQFGWPSVFYSFGSLGTVWLTLWLTKAESSPLEDPTLLPEERKLIADNCASKEPVKSIPWRLILSKPPVWALISCHFCHNWGTFILLTWMPTYYHQVLKFNLMESGLLSVFPWMTMAISANAGGWIADTLVSRGFSVTNVRKIMQTIGFLGPAFFLTQLKHIDSPTMAVLCMACSQGTDAFSQSGLYSNHQDIAPRYSGVLLGLSNTAGVLAGVLGTAATGHILQHGSWDDVFTISVGLYLVGTVIWNLFSTGEKIID
B4: HCT R356D (Coleus scutellarioides, UniProt E8ZAP2); chain MKIHVRDSTLVRPSAATPAVSLWNSNVDLVVPNFHTPSVYFYRPSGADNFFDTAVMKAALGRALVSFYPMAGRLKRDEDGRVEIDCNAEGVLFVEAESDGTVDDYGDFAPSLELRRLIPAVDYSQGISAYPLLVLQVTFFKCGGVSLGVGMQHHAADGFSGLHFINTWSDMARGLDITLPPFIDRTLLSARDPPQPQFKHVEYQPPPAMKTYEPAETVVSIFKLTKDQLTTLKAKSKEDGNTTTYSSYEMLSGHVWRCTCLARGLPEEQETKLYIATDGRSRLQPQLPPGYFGNVIFTATPLAVAGDLGSKPVWYAASKIHDALARMDNDYLRSALDFLELQPDLKALVRGAHTFDCPNLGITSWVRLPIHDADFGWGRPIFMGPGGIAYEGLSFVLPSPTNDGSLSVAISLQAEHMKLFEKLLYQI
B5: acryloyl-CoA reductase (Metallosphaera sedula, UniProt A4YGN2); chain MKAVVVKGHKQGYEVREVQDPKPASGEVIIKVRRAALCYRDLLQLQGFYPRMKYPVVLGHEVVGEILEVGEGVTGFSPGDRVISLLYAPDGTCHYCRQGEEAYCHSRLGYSEELDGFFSEMAKVKVTSLVKVPTRASDEGAVMVPCVTGMVYRGLRRANLREGETVLVTGASGGVGIHALQVAKAMGARVVGVTTSEEKASIVGKYADRVIVGSKFSEEAKKEDINVVIDTVGTPTFDESLKSLWMGGRIVQIGNVDPTQSYQLRLGYTILKDIAIIGHASATRRDAEGALKLTAEGKIRPVVAGTVHLEEIDKGYEMLKDKHKVGKVLLTT
B6: UGT1A9 (Homo sapiens, UniProt O60656); chain GKLLVVPMDGSHWFTMRSVVEKLILRGHEVVVVMPEVSWQLGRSLNCTVKTYSTSYTLEDLDREFKAFAHAQWKAQVRSIYSLLMGSYNDIFDLFFSNCRSLFKDKKLVEYLKESSFDAVFLDPFDNCGLIVAKYFSLPSVVFARGILCHYLEEGAQCPAPLSYVPRILLGFSDAMTFKERVRNHIMHLEEHLLCHRFFKNALEIASEILQTPVTEYDLYSHTSIWLLRTDFVLDYPKPVMPNMIFIGGINCHQGKPLPMEFEAYINASGEHGIVVFSLGSMVSEIPEKKAMAIADALGKIPQTVLWRYTGTRPSNLANNTILVKWLPQNDLLGHPMTRAFITHAGSHGVYESICNGVPMVMMPLFGDQMDNAKRMETKGAGVTLNVLEMTSEDLENALKAVINDKSYKENIMRLSSLHKDRPVEPLDLAVFWVEFVMRHKGAPHLRPAAHDLTWYQYHSLDVIGFLLAVVLTVAFITFKCCAYGYRKCLGKKGRVKKAHKSKTH
B7: aromatic amino acid decarboxylase (Bacillus atrophaeus, UniProt I0DFJ0); chain MSENLQLSAEEMRQLGYQAVDLIIDHMNHLKSKPVSETIDSDILRNKLTESIPENGSDPKELLHFLNRNVFNQITHVDHPHFLAFVPGPNNYVGVVADFLASGFNVFPTAWIAGAGAEQIELTTINWLKSMLGFPDSAEGLFVSGGSMANLTALTVARQAKLNNDIENAVVYFSDQTHFSVDRALKVLGFKHHQICRIETDEHLRISVSALKKQIKEDRTKGKKPFCVIANAGTTNCGAVDSLNELADLCNDEDVWLHADGSYGAPAILSEKGSAMLQGIHRADSLTLDPHKWLFQPYDVGCVLIRNSQYLSKTFRMMPEYIKDSETNVEGEINFGECGIELSRRFRALKVWLSFKVFGVAAFRQAIDHGIMLAEQVEAFLGKAKDWEVVTPAQLGIVTFRYIPSELASTDTINEINKKLVKEITHRGFAMLSTTELKEKVVIRLCSINPRTTTEEMLQIMMKIKALAEEVSISYPCVAE
B8: FMO3 E158K (Homo sapiens, UniProt P31513); chain GKKVAIIGAGVSGLASIRSCLEEGLEPTCFEKSNDIGGLWKFSDHAEEGRASIYKSVFSNSSKEMMCFPDFPFPDDFPNFMHNSKIQEYIIAFAKEKNLLKYIQFKTFVSSVNKHPDFATTGQWDVTTERDGKKESAVFDAVMVCSGHHVYPNLPKKSFPGLNHFKGKCFHSRDYKEPGVFNGKRVLVVGLGNSGCDIATELSRTAEQVMISSRSGSWVMSRVWDNGYPWDMLLVTRFGTFLKNNLPTAISDWLYVKQMNARFKHENYGLMPLNGVLRKEPVFNDELPASILCGIVSVKPNVKEFTETSAIFEDGTIFEGIDCVIFATGYSFAYPFLDESIIKSRNNEIILFKGVFPPLLEKSTIAVIGFVQSLGAAIPTVDLQSRWAAQVIKGTCTLPSMEDMMNDINEKMEKKRKWFGKSETIQTDYIVYMDELSSFIGAKPNIPWLFLTDPKLAMEVYFGPCSPYQFRLVGPGQWPGARNAILTQWDRSLKPMQTRVVGRLQKPCFFFHWLKLFAIPILLIAVFLVLT
B9: protein (Adiantum capillus-veneris, UniProt A0A4Y6I289); chain MTDAVENKQVEFGALEVEGIKFAPSVAALGSTKQLVLGGAGFRGLEISGNLVKFTAIGIYVDEAIIPHLSPKLHGKSIEELCNNELLFEEVLAAPFEKLVRVVFLLPLTGPQYSEKVVERMGLLPNPGIKEESTKQFLEIFKPENFPPRTSLICSFTEEALKVAFMKTDDFPEDADAVIEDKWLARAFLASIIGKDGVSPLAKLSFAERMSRCL
B10: UGT3A2 S435Y (Homo sapiens, UniProt Q3SY77); chain AKILTISTVGGSHYLLMDRVSQILQDHGHNVTMLNHKRGPFMPDFKKEEKSYQVISWLAPEDHQREFKKSFDFFLEETLGGRGKFENLLNVLEYLALQCSHFLNRKDIMDSLKNENFDMVIVETFDYCPFLIAEKLGKPFVAILSTSFGSLEFGLPIPLSYVPVFRSLLTDHMDFWGRVKNFLMFFSFCRRQQHMQSTFDNTIKEHFTEGSRPVLSHLLLKAELWFINSDFAFDFARPLLPNTVYVGGLMEKPIKPVPQDLENFIAKFGDSGFVLVTLGSMVNTCQNPEIFKEMNNAFAHLPQGVIWKCQCSHWPKDVHLAANVKIVDWLPQSDLLAHPSIRLFVTHGGQNSIMEAIQHGVPMVGIPLFGDQPENMVRVEAKKFGVSIQLKKLKAETLALKMKQIMEDKRYKYAAVAASVILRSHPLSPTQRLVGWIDHVLQTGGATHLKPYVFQQPWHEQYLLDVFVFLLGLTLGTLWLCGKLLGMAVWWLRGARKVKET

Substance	substrate	sample	pH	temperature	setting	together with	Vmax
B1 (enzyme)	Cc1nc2c(=O)[nH]c(=O)nc-2n(C[C@H](O)[C@H](O)[C@H](O)CO)c1C		pH 7.2	37 °C	apparent		0.158 µmol/min/mg
protein (Danio rerio, UniProt A0EXC5)	C[C@H](CCCC(CO)CO)[C@H]1CC[C@H]2[C@@H]3[C@H](O)C[C@H]4C[C@H](O)CC[C@]4(C)[C@H]3C[C@H](O)[C@]12C		pH 7	28 °C	substrate inhibition	PAPS 14 µM	0.0247 µmol/min/mg
B2 (enzyme)	NC(=O)c1ccc[n+]([C@@H]2O[C@H](COP(=O)(O)OP(=O)(O)OC[C@H]3O[C@@H](n4cnc5c(N)ncnc54)[C@H](OP(=O)(O)O)[C@@H]3O)[C@@H](O)[C@H]2O)c1		pH 8.8	23 °C	cofactor varied		5.6 µmol/min/mg
enzyme (Vitis vinifera, UniProt F6H697)	O=C(O)Cc1c[nH]c2ccccc12		pH 8.6	25 °C			0.207 µmol/min/mg
Gcs (Leishmania donovani, UniProt Q67BG3)	N[C@@H](CS)C(=O)O				apparent	ATP, L-glutamate, Mg2+	75.2 µM/min/mg
B3 (enzyme R120K)	O=P(O)(O)O		pH 6.5	25 °C	apparent, not purified		0.00425 µmol/min/mg
B4 (HCT R356D)	NCc1ccc(O)c(O)c1		pH 8		pseudo-first-order	p-coumaroyl CoA	35.4 µmol/min/mg
enzyme (Thermotoga maritima, UniProt Q9WZ18)	Cc1cc2nc3c(=O)[nH]c(=O)nc-3n(C[C@H](O)[C@H](O)[C@H](O)COP(=O)(O)OP(=O)(O)OC[C@H]3O[C@@H](n4cnc5c(N)ncnc54)[C@H](O)[C@@H]3O)c2cc1C		pH 7	80 °C	apparent, cofactor varied		134 µmol/min/mg
B5 (acryloyl-CoA reductase)	C=CC(=O)SCCNC(=O)CCNC(=O)[C@H](O)C(C)(C)COP(=O)(O)OP(=O)(O)OC[C@H]1O[C@@H](n2cnc3c(N)ncnc32)[C@H](O)[C@@H]1OP(=O)(O)O		pH 6.5	65 °C	substrate made in situ	ATP, CoA, NADPH	7.6 µmol/min/mg
B6 (UGT1A9)	Cc1ccc2oc(-c3ccc4c(c3)OCO4)c(O)c(=O)c2c1		pH 7.4	37 °C			0.006 µmol/min/mg
B7	N[C@@H](Cc1c[nH]c2ccccc12)C(=O)O		pH 7	37 °C	not purified	PLP 40 µM	0.3 µmol/min/mg
enzyme (Oryctolagus cuniculus, UniProt A0A5F9DQ59)	O=c1oc2c(O)c(O)ccc2cc1-c1nc2ccccc2s1		pH 7.4	37 °C			0.00033 µmol/min/mg
B8 (FMO3 E158K)	CN1CCC[C@H]1c1cccnc1	HEK293 microsomes		37 °C	not purified	NADPH regenerating system	9.8e-06 µmol/min/mg
B9 (protein)	O=C(/C=C/c1ccc(O)cc1)c1c(O)cc(O)cc1O						214 µmol/min/mg
CYP2C19 (Homo sapiens, UniProt P33261)	COc1cc2c(cc1CC=C(C)C)C(=O)C[C@@H](c1ccc(O)cc1)O2		pH 7.4	37 °C			0.000143 µmol/min/mg
B10 (UGT3A2 S435Y)	O=c1ccn([C@@H]2O[C@H](CO[P@@](=O)(O)O[P@@](=O)(O)O[C@H]3O[C@H](CO)[C@@H](O)[C@H](O)[C@H]3O)[C@@H](O)[C@H]2O)c(=O)[nH]1		pH 7.4	37 °C	not purified	1-OH-pyrene 16 µM, MgCl2 10 mM, alamethicin	0.000707 µmol/min/mg

Excerpt of the above:
Substance	substrate	sample	pH	temperature	setting	together with	Vmax
enzyme (Oryctolagus cuniculus, UniProt A0A5F9DQ59)	O=c1oc2c(O)c(O)ccc2cc1-c1nc2ccccc2s1		pH 7.4	37 °C			0.00033 µmol/min/mg
